# Published values from different studies.
# Each line is one published result; not all experiments were run side by side. ± marks the error that the study gave.
Structure (SMILES),tested on,test,test system,setting,scale,endpoint,result
C[C@@H]1OC(=O)NN=C1c1ccc(-c2ccc(F)cc2)c(C(F)(F)F)c1,,"phase I trial, measured: Cough all grades",human patients,"dose not given, all dose groups",,patients with adverse event,20%
COc1ncccc1-c1cnn2ccc(N3CCN(C(=O)OC(C)C)CC3)nc12,,,"mouse, SNL model, plasma","oral, 30 mg/kg, 120 min",,free drug concentration,140 nM
[O-][S+]1CCc2nc(N3CCC(c4ncc(Cl)cn4)CC3)nc(NC3(CO)CCC3)c21 (stereo not shown),,phase I trial,"healthy male volunteers, blood","oral, 48 mg single dose, after last treatment",,creatine kinase,229 U/L
O=C(NCc1ccccc1Cl)C1CCCN(Cc2cccc(-c3ccc(F)cc3F)c2)C1 (stereo not shown),Vero-E6,CellTiter-Glo ATP,,"concentration not given, 72 h, retest 8-point duplicates","reference: DMSO 0%, hyamine -100%, more negative, more toxic",cytotoxicity efficacy,-33.5%
CO[C@H]1C[C@@H]2CC[C@@H](C)[C@@](O)(O2)C(=O)C(=O)N2CCCC[C@H]2C(=O)O[C@H]([C@H](C)C[C@@H]2CC[C@@H](OC(=O)NCCOCCOCCOCCOCCOCCOCCOCCOCCC(=O)N3CCc4cc(Cn5nc(-c6ccc7oc(N)nc7c6)c6c(N)ncnc65)ccc4C3)[C@H](OC)C2)C[C@@H](O)[C@H](C)/C=C(\C)[C@@H](O)[C@@H](OC)C(=O)[C@H](C)C[C@H](C)/C=C/C=C/C=C/1C,,,patients with advanced solid tumours,"intravenous, dose not given, any grade",,incidence of Fatigue TRAE,42.1%
COc1ccc(-c2c(-c3ccc(C#N)c(F)c3)nc(N3CCC(N)CC3)n(C)c2=O)cc1F,,measured: Fatigue/asthenia,relapsed/refractory marginal zone lymphoma patients,"oral, 60 mg, any grade, dose expansion",,treatment-related adverse event incidence,0%
CC(C)(O)c1cc(Nc2cc(Oc3cn(C4CC4)nc3C3CCOCC3)ccn2)ccn1,,Vomiting,"advanced cancer patients, dose escalation","oral, dose not given, 3 weeks on/1 off, all causality grade ≥3",,treatment-emergent adverse events,0%
O=C(Oc1ccccc1)[c-]1cccc1.[Fe+2].c1cc[cH-]c1,,cyclic voltammetry,methanol/DMEM 1:1 with TBAPF6,"Pt disk electrode, Ag/AgCl reference, together with: scan rate 100 mV/s",,oxidation potential,653 mV
CNC(=O)c1c(C)oc2cc(Oc3ccnc4cc(OCCN5CCOCC5)ccc34)ccc12,,,"patients, plasma",,,time to steady state,≤ 15 days
CC(C)c1ccc(N=Nc2ccc3[nH]cc(CCN(C)C)c3c2)cc1,,light irradiation,solution,together with: light 530 nm,,trans isomer at photostationary state,87%
CC(C)N(CCc1c[nH]c2cccc(OC(=O)CCCC(=O)O)c12)C(C)C.Cl,,,"male beagle dog, plasma","subcutaneous, 1 mg/kg",,Cmax,344 ng/mL
CCc1ccc(CC/C=C/c2ccc3c(c2)C(=O)CC3)cc1,,,"Sprague-Dawley rat, male, serum","oral, 450 mg/kg/day, 14 days",,sodium,143 mM
Cn1ncc(-c2nc(N[C@H]3CC[C@H](N)CC3)ncc2Cl)c1CC1CC1,,phase I dose escalation,human patients,"dose not given, treatment-related adverse events",,alanine aminotransferase increase incidence,12.9%
C[C@@H]1NC(=O)[C@H](CCCCNC(=O)CO/N=C/C(=O)NCCCC[C@@H]2NC(=O)[C@@H](Cc3ccccc3)NC(=O)[C@H](CC(=O)O)NC(=O)CNC(=O)[C@H](CCCNC(=N)N)NC2=O)NC(=O)CNC(=O)[C@@H]2CCCN2C(=O)[C@H](CCCCNC(=O)CO/N=C/C(=O)NCCCC[C@@H]2NC(=O)[C@@H](Cc3ccccc3)NC(=O)[C@H](CC(=O)O)NC(=O)CNC(=O)[C@H](CCCNC(=N)N)NC2=O)NC(=O)[C@H](CCCCNC(=O)CN2CCCNCCNCCCNCC2)NC(=O)[C@H](CCCCNC(=O)CO/N=C/C(=O)NCCCC[C@@H]2NC(=O)[C@@H](Cc3ccccc3)NC(=O)[C@H](CC(=O)O)NC(=O)CNC(=O)[C@H](CCCNC(=N)N)NC2=O)NC(=O)CNC(=O)[C@@H]2CCCN2C(=O)[C@H](CCCCNC(=O)CO/N=C/C(=O)NCCCC[C@@H]2NC(=O)[C@@H](Cc3ccccc3)NC(=O)[C@H](CC(=O)O)NC(=O)CNC(=O)[C@H](CCCNC(=N)N)NC2=O)NC1=O [copper-64 labelled],,,"normal mice, muscle","intravenous, 0.74 MBq, 3 h post-injection",,tissue uptake,0.38 ± 0.05 %ID/g
COc1c(N2CC3CCCNC3C2)c(F)cc2c(=O)c(C(=O)OCc3cnc([N+](=O)[O-])s3)cn(C3CC3)c12.O=C(O)C(F)(F)F (stereo not shown),,cyclic voltammetry,anhydrous acetonitrile,concentration not given,reference: Ag/AgCl,reduction potential,-0.63 V
COC[C@@H](CC(C)C)NC(=O)c1ccc(C)c(C)c1,,micronucleus test,"Hsd:ICR (CD-1) mice female, bone marrow","oral, 624 mg/kg, 24 h",,micronucleated PCE per 1000 PCE,0.4
Cn1cc(-c2nc(N[C@@H]3CCCC[C@@H]3N)c(F)c3c2C(=O)NC3)cn1,,measured: Hemoptysis,patients with relapsed or refractory AML,"oral, dose not given, all doses",,hemorrhagic adverse events,7%
CC(C)C[C@H](NC(=O)[C@H](CCCCN)NC(=O)OCC1c2ccccc2-c2ccccc21)C(=O)N[C@H](C(=O)N[C@@H](Cc1ccccc1)C(=O)N[C@@H](Cc1ccccc1)C(=O)N[C@@H](CCCCN)C(=O)NCC(=O)N[C@@H](Cc1ccccc1)C(=O)N[C@@H](C)C(=O)N[C@@H](Cc1c[nH]c2ccccc12)C(=O)N[C@@H](CC(N)=O)C(=O)N[C@H](C(=O)N[C@H]1CSSC[C@@H](C(=O)N[C@@H](Cc2c[nH]cn2)C(=O)N[C@@H](CCCNC(=N)N)C(=O)N[C@@H](CCCNC(=N)N)C(=O)N[C@@H](C)C(=O)N[C@@H](CC(N)=O)C(N)=O)NC(=O)[C@H](C(C)C)NC(=O)[C@H](CCCNC(=N)N)NC(=O)[C@H](C(C)C)NC(=O)CNC(=O)[C@H](CC(N)=O)NC(=O)[C@H](CCCNC(=N)N)NC(=O)[C@H](Cc2ccc(O)cc2)NC(=O)[C@H](C(C)C)NC1=O)C(C)C)C(C)C,,,"ICR mouse, blood","intramammary, 5 mg/kg, day 5, 3 d dosing",,glucose,1.59 ± 0.12 mmol/L
O=S(=O)(Nc1ccccc1)c1ccc(NC(=S)Nc2ccccc2)cc1,,,"female mouse, blood","oral, 20 mg/kg daily, 14 days",,haemoglobin,10.2 g/dL
COc1ccc(C[C@@H]2NC(=O)[C@H]([C@@H](C)O)NC(=O)[C@@H]3[C@@H]4CCN3C(=O)[C@@H]3Cc5cn(c6ccc(F)cc56)CCCCCCN(Cc5ccc(cc5)CCNC(=O)[C@]5(C)CCCN5C2=O)C(=O)CCC(=O)N[C@@H](C)C(=O)N[C@H](CNC(=O)CCCCC[N+](C)(C)C)C(=O)N[C@@H](Cc2cccc(c2)CNC(=O)CO4)C(=O)N3)cc1,,measured: Pharyngitis,humans,"concentration not given, Study-001",,participants with adverse event,0%
Clc1ccc(-c2ccccc2)cc1,,,"female Sprague-Dawley rats, serum","inhalation, 23 µg/rat, 1 h after exposure",,sodium,129 ± 7 mM
C/C(=N\C#N)N(C)Cc1ccc(Cl)nc1,,,soil,"28 days, nominal 1.1",,recovery,5%
N[C@@H]1c2ccccc2OC12CCN(c1cnc3c(N4CCCc5ncccc54)n[nH]c3n1)CC2,,,advanced solid tumour patients,"oral, 75 mg once daily",,patients with serious TEAE,57.1%
CCN1[C@@H](C(=O)NC23CCC(C(=O)O)(CC2)CC3)[C@H](c2cccc(Cl)c2F)[C@]2(C(=O)Nc3cc(Cl)ccc32)C12CCCCC2,,,patients with advanced solid tumours,"oral, 100 mg",,Tinnitus incidence,9.1%
C[C@]1(CO)Cc2ncn(-c3ccc(C#N)c(Cl)c3)c2C(=O)O1,,,"healthy men, serum","dose not given, mean, generally within this range",reference: baseline,change in serum potassium,5 to 6%
CC(=O)c1c(C)c2cnc(Nc3ccc(C4CCN(CCS(C)(=O)=O)CC4)cn3)nc2n(C2CCCC2)c1=O,,,"human, plasma","oral, 25 mg once daily, day 21, multiple doses",,AUC(0-t),332 ng·h/mL
COc1ccc(Nc2nc(Nc3ccc(OC)cc3OC)nc(N3CCOCC3)n2)c(OC)c1,Vero-E6,CellTiter-Glo ATP,,"concentration not given, 72 h, second round 5-point","reference: DMSO 0%, hyamine -100%, more negative, more toxic",cytotoxicity efficacy,0%
COc1cc2c(Oc3ccc4[nH]c(C)cc4c3F)ccnc2cc1OCC1(N)CC1,,,paediatric recurrent refractory sarcoma,8 mg,,grade 3 Hypertension,0%
